Published values pooled from the literature.
Numbered parts are unrelated; each lists some results of a single study. Several values in a cell are separate wells, animals, samples, runs or records.

Sample 1 — cell line: HEK-293T-ACE2-TMPRSS2; method: cell count; concentration: 10 µM
SMILES	viability [%]
C=CCc1c(O)c(CC)cc2c(C)cc(=O)oc12	65
COC[C@@H]1CN(S(=O)(=O)c2ccc(C#N)cc2)C[C@H]1c1ccncc1	89
COC(=O)c1ccc(CN2CCN(CC3CCCCC3)C(CCO)C2)cc1 (stereo not drawn)	104
CCOc1ncccc1C(=O)Nc1ccc(C)cc1S(=O)(=O)N(CC)CC	67
CCc1ccc(C2C3=C(COC3=O)Nc3c2c(=O)n(C)c(=O)n3C)cc1 (stereo not drawn)	65
CC(C)(C)c1ccc(O)c(CN2CCC(CN)C2)c1 (stereo not drawn)	76
CN(C(=O)CSC1=NCCS1)C1CCCCC1	79
CCc1cc2c(N3CCN(c4cccc(C)c4)C(C)C3)ncnc2s1 (stereo not drawn)	71
CC(C)C[C@H](NC(=O)CNCc1cc(Cl)ccc1Cl)B(O)O	109
O=C(Cn1ncc(Cl)c(Cl)c1=O)NC1CCCCC1	65
CN1CCCn2nc(C(=O)NCCSc3nnnn3C)cc2C1	66
Nc1nc(Nc2ccccc2)sc1C(=O)c1ccccc1Cl	84
CC(C)NC(=O)c1cccc(-c2noc(-c3cc4ccccc4[nH]3)n2)c1	71

Sample 2 — concentration: 0.1 µM; reference: DMSO
SMILES: CNC(=N)NCCC[C@H](NC(=O)[C@H](CC(C)C)NC(=O)NNC(=O)[C@H](Cc1ccccc1)NC(=O)[C@H](CO)NC(=O)[C@H](CC(N)=O)NC(=O)[C@@H](Cc1ccncc1)NC(=O)[C@H](N)Cc1ccc(O)cc1)C(=O)N[C@@H](Cc1ccccc1)C(N)=O
cell line	test	conditions	viability
sample BA colorectal tumour organoid			58%
colorectal tumour organoids			103%
sample I colorectal tumour organoid		replicate 2	129%
normal-adjacent epithelium patient-derived organoids sample G	CellTiter-Glo		121% and 107%
sample B colorectal tumour organoid			116%
sample C colorectal tumour organoid		replicate 2	109%
normal-adjacent epithelium patient-derived organoids sample F	CellTiter-Glo		106% and 112%
normal-adjacent epithelium patient-derived organoids sample H	CellTiter-Glo		102% and 101%

Sample 3 — effect on: enzyme activity; action: inhibitor; method: radiometric; concentration: 0.5 µM
Target: Leukocyte tyrosine kinase receptor (LTK, Homo sapiens, UniProt P29376)
Sequence of UniProt P29376 (whole entry, looked up): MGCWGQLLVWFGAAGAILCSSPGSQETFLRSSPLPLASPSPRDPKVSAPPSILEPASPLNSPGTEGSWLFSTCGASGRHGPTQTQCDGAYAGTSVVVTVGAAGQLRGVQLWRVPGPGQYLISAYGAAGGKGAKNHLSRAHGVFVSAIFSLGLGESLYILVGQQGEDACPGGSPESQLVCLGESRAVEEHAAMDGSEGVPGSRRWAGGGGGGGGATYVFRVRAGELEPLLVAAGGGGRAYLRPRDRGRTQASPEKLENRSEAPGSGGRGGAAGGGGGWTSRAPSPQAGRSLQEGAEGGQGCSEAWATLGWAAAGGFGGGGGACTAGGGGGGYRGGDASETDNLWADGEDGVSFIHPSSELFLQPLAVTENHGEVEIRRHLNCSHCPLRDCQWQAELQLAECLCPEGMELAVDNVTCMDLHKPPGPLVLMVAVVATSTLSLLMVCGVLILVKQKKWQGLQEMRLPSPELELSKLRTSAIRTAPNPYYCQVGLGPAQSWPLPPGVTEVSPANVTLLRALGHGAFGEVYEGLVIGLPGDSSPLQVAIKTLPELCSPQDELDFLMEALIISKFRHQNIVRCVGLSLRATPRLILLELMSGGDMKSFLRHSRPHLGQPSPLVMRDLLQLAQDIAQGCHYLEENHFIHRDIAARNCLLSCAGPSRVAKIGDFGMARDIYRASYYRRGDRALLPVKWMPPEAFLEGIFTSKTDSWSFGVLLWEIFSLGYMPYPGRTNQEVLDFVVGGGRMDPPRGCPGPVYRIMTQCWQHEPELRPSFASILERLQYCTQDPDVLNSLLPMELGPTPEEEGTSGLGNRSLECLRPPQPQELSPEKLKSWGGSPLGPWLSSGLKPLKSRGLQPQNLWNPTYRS
SMILES	remaining activity [%]
Oc1ccc(Nc2nc(-c3ccc(Cl)cc3)cs2)cc1	104
CC[n+]1c(/C=C/N(C)c2ccccc2)n(-c2ccccc2)c2ccc(-c3nc4ccccc4s3)cc21	90.7
Cc1ccc(NC2=CC(=O)c3sc(C)nc3C2=O)cc1	88.8
O=S(=O)(NCCNC/C=C/c1ccc(Br)cc1)c1cccc2cnccc12	94.7
CC(=O)c1ccc(N2CCOCC2)cc1O	102
Nc1ncnc2c1cnn2-c1ccccc1	96.8
N#CC(=C(N)Sc1ccc(N)cc1)c1ccccc1C(F)(F)F	100
Cc1cc(Nc2nc(-c3ccccc3)nc3ccccc23)n[nH]1	63.6
Fc1ccc(-c2nc3n(c2-c2ccncc2)CCS3)cc1	102
CC(C)(C)n1nc(Cc2cccc3ccccc23)c2c(N)ncnc21	98.2
CC(C)(C)c1cc(C=C(C#N)C#N)cc(Br)c1O	96.5
O=C1NC(=O)C(c2c[nH]c3ccccc23)=C1c1c[nH]c2ccccc12	85.1
CSc1nc(-c2ccnc(N[C@@H](C)c3ccccc3)c2)c(-c2ccc(F)cc2)[nH]1 (racemic)	83.6
NC(=O)c1ccc(N(C(N)=O)c2c(F)cccc2F)nc1-c1ccc(F)cc1F	95
COc1cc(Nc2c(C#N)cnc3cc(OCCCN4CCN(C)CC4)c(OC)cc23)c(Cl)cc1Cl	57.7
Cc1cncc2cccc(S(=O)(=O)N3CCCN(C(=O)CN)C[C@@H]3C)c12	93
O=C1Cc2c([nH]c3ccc([N+](=O)[O-])cc23)-c2ccccc2N1	93.9
CC#CC(=O)Nc1cc2c(Nc3ccc(F)c(Cl)c3)ncnc2cn1	93
CCCC(=O)Oc1ccc2[nH]c(C(=O)c3cc4ccccc4[nH]3)cc2c1	87.5
COc1ccc(S(=O)(=O)N(CCO)c2ccccc2CN(C)CC=Cc2ccc(Cl)cc2)cc1	97.9
CCc1[nH]c(-c2ccc(OC)cc2)nc1-c1ccncc1	106
Nc1nc(Nc2ccc(S(N)(=O)=O)cc2)nn1C(=O)c1c(F)cccc1F	85.8

Sample 4 — cell line: HEK-293T; organism: VSV pseudotyped with VSV-G; concentration: 10 µM; time: 16 h
SMILES	pseudovirus infection [%]
O=c1n(CCCN2CCN(c3cccc(Cl)c3)CC2)nc2ccccn12	92.2
CC(C)NCC(O)COc1ccc(CCOCC2CC2)cc1 (stereo not drawn)	97.8
CC1(C)C[C@@H]1C(=O)N/C(=C\CCCCSC[C@H](N)C(=O)O)C(=O)O	111
CCCNCC(O)COc1ccccc1C(=O)CCc1ccccc1 (stereo not drawn)	108
NCCc1ccc(O)c(O)c1	104
CCCc1cc(=O)[nH]c(=S)[nH]1	103
NC(CO)(CO)CO	83.8
CC(=O)NC[C@H]1CN(c2ccc(N3CCOCC3)c(F)c2)C(=O)O1	121
Cc1cccc([C@H](C)c2cnc[nH]2)c1C	118
CNCCCC1c2ccccc2C=Cc2ccccc21	107
OCCOCCN1CCN(C2=Nc3ccccc3Sc3ccccc32)CC1	117
